Experimental data gathered from unrelated publications.
A part holds a random share of what one study measured. ± marks the error that the study gave. Converted amounts (≈) assume the structure as drawn.

Block 1
Organism: SARS-CoV-2 Wuhan spike VSV pseudovirus
Observed: pseudovirus entry
Concentration: concentration not given
With Cc1cccc(N2CCN(C(=O)CCCn3c(C)c4cnn(-c5ccccc5)c(=O)c4c3C)CC2)c1C the inhibition was 37%.
The inhibition of COc1ccc(C(=O)N2CCCC2)c(OC2CCN(C3Cc4ccccc4C3)CC2)c1 is reported as 43%.
COc1ccc(CC(=O)Nc2cccc(-n3cnnn3)c2)cc1 gave an inhibition of 39%.
ClC(Cl)(Cl)c1nc2ccccc2n2nncc12 gave an inhibition of 41%.
The inhibition of CCCS(=O)(=O)c1ncc(Cl)c(C(=O)N(Cc2ccccc2)c2ccccn2)n1 is reported as 37%.
The inhibition of CNS(=O)(=O)CCNCC1(O)CCCN(Cc2cccc(C)c2)C1=O (centres unmarked) is reported as 40%.
For CC(=O)N1CCCSc2ccc(S(=O)(=O)NCCCN3CCC(C)CC3)cc21, the inhibition was 37%.
For Cc1ccc2[nH]cc(CN(C)CC3CCCCO3)c2c1 (centres unmarked), the inhibition was 50%.
With O=S(=O)(Cc1ccccc1F)c1oc(-c2ccc(F)cc2)nc1S(=O)(=O)c1ccccc1 the inhibition was 48%.
For CCOc1ccc(OCC)c(NS(=O)(=O)c2cc(-c3cc(C)no3)cs2)c1, the inhibition was 37%.
The inhibition of CCOC(=O)c1cccc(NC(=O)CCS(=O)(=O)c2ccc(Br)s2)c1 is reported as 39%.
CC(Cc1ccsc1)Nc1ncnc2sccc12 (centres unmarked) has an inhibition of 41%.
CCOC(=O)C1(CCCc2ccccc2)CCN(C(=O)c2cnsn2)CC1 has an inhibition of 36%.
For O=C(OCCc1ccccc1/C=C\[N+](=O)[O-])c1ccc(C(F)(F)F)cc1, the inhibition was 43%.
The inhibition of O=C1CN(c2ncnc3sc4c(c23)CCCCC4)CCN1 is reported as 37%.
COc1ccc(-c2noc(CC3CCN(C(=O)c4cncc(Br)c4)CC3)n2)cc1 has an inhibition of 38%.
For O=C(C1CCCCC1)N1C[C@@H](CO)[C@H](c2ccncc2)C1, the inhibition was 41%.
CCN1CCN(Cc2ccc(NC(=O)c3cc4c(C)nn(-c5ccc(Cl)cc5)c4s3)cc2)CC1 gave an inhibition of 44%.
For Cc1cc2c(cc1O)NC(=O)CC2c1c[nH]nc1-c1ccc(F)cc1 (centres unmarked), the inhibition was 39%.
For c1cnc2c(-n3nc(C4CC4)nc3-c3csnn3)cccc2c1, the inhibition was 44%.
For COc1ccc(NC(=O)c2nc(S(=O)(=O)Cc3ccccc3C)ncc2Cl)cc1, the inhibition was 48%.
Cc1cc2c(c(=O)n1CCN(C)C)C(c1cccc(Br)c1)C(C#N)=C(N)O2 (centres unmarked) has an inhibition of 39%.
Cc1cn2cc(CNC(=O)c3ccc(C#CC(C)(C)O)o3)nc2s1 has an inhibition of 38%.
With CCCc1nc(-c2cc3cccc(C)c3nc2NCCN2CCc3ccccc3C2)no1 the inhibition was 39%.
COc1cccc(NC(=O)CCC2CCN(C(=O)c3cnn(C(C)C)c3)CC2)c1 has an inhibition of 46%.

Further values, each from its own experiment
rep papain-like protease: Replicase polyprotein 1ab, papain-like protease (rep, Severe acute respiratory syndrome coronavirus 2, UniProt P0DTD1)
rep nsp14: Replicase polyprotein 1ab, nsp14 (rep, Severe acute respiratory syndrome coronavirus 2, UniProt P0DTD1)
Replicase polyprotein 1a P3395H main protease: Replicase polyprotein 1a, main protease (Severe acute respiratory syndrome coronavirus 2, UniProt P0DTC1, P3395H)
Matrix protein 2 S31N: Matrix protein 2 (Influenza A virus, UniProt P0DOF5, S31N)
For Cn1cnc(Cn2c(=O)[nH]/c(=N\c3cc4cn(C)nc4cc3Cl)n(Cc3cc(F)c(F)cc3F)c2=O)n1, the IC50 was 520 nM (Severe acute respiratory syndrome coronavirus 2; viral replication, inhibitor; Vero C1008; 96 h).
CCC(CC)COC(=O)[C@H](C)N[P@](=O)(OC[C@H]1O[C@@](C#N)(c2ccc3c(N)ncnn23)[C@H](O)[C@@H]1O)Oc1ccccc1 has an EC50 of 700 nM (SARS-CoV-2; viral replication; Vero C1008, B.1.351).
For CCCCCCCC/C=C\CCCCCCCC(=O)O[C@H](COC(=O)CCCCCCCCCCCCCCC)COP(=O)(O)OC[C@H](N)C(=O)O, the Kd was 400 ± 20 nM (Nucleoprotein (Severe acute respiratory syndrome coronavirus 2, UniProt P0DTC9); membrane binding, surface plasmon resonance; SARS-CoV-2).
CC(C)(C)[C@H](NC(=O)C(F)(F)F)C(=O)N1C[C@H]2[C@@H]([C@H]1C(=O)N[C@H](C#N)C[C@@H]1CCNC1=O)C2(C)C gave an IC50 of 4860 ± 730 nM (SARS-CoV-2; viral replication; Vero C1008, Omicron BA.5; 96 h).
The EC50 of CC(C)(C)[C@H](NC(=O)C(F)(F)F)C(=O)N1C[C@H]2[C@@H]([C@H]1C(=O)N[C@H](C#N)C[C@@H]1CCNC1=O)C2(C)C is reported as 5 nM (SARS-CoV-2; viral replication, replicon; S4145N Mpro cleavage-site mutant).
CCCCCCC#Cc1cncc(-c2nnc(SCc3ccc(Cl)cc3)n2C)c1 has an IC50 of 4600 nM (Mycobacterium tuberculosis; MABA; Erdman M3 FbiC P367S mutant).
CC(C)C(=O)OC[C@H]1O[C@@H](n2ccc(NO)nc2=O)[C@H](O)[C@@H]1O gave a selectivity index of 7 to 49 (SARS-CoV-2; baseline: CC50 over EC50).
For CCCCCCC#Cc1cncc(-c2nnc(SCc3cc([N+](=O)[O-])cc([N+](=O)[O-])c3)n2C)c1, the IC50 was 310 ± 17 nM (Mycobacterium tuberculosis; Erdman cydA mutant).
With CO[C@H]1/C=C/O[C@@]2(C)Oc3c(C)c(O)c4c(O)c(c(/C=N/N5CCN(C)CC5)c(O)c4c3C2=O)NC(=O)/C(C)=C\C=C\[C@H](C)[C@H](O)[C@@H](C)[C@@H](O)[C@@H](C)[C@H](OC(C)=O)[C@@H]1C the MIC was 256 µg/mL (≈ 311 µM) (Mycobacterium tuberculosis; Alamar blue; 22/22, SIRE and linezolid resistant; 21 days, 37 °C).
The EC50 of O=C1c2c(O)c(=O)ccn2N([C@@H]2c3ccccc3SCc3c2ccc(F)c3F)[C@@H]2COCCN12 is reported as 22.3 ± 3.49 nM (influenza A(H1N1)pdm09 virus; rg-A/California/04/2009 PA-I38T).
The activity of COC(=O)[C@@H](Cc1ccc(O)c(O)c1)OC(=O)/C=C/c1ccc(O)c(O)c1 is reported as 22.7% (rep papain-like protease; concentration not given, C111S mutant; baseline: positive control).
The EC50 of CCO is reported as 9.45 % v/v (SARS-CoV-2; virucidal activity, Viral ToxGlo; A549-hACE2, Delta B.1.617.2; 1 h, 37 °C).
The MIC of CC[C@@H](CO)NCCN[C@@H](CC)CO is reported as 4 µg/mL (≈ 19.6 µM) (Mycobacterium tuberculosis; Alamar blue; 22/22, SIRE and linezolid resistant; 21 days, 37 °C).
O=C(NC1CCN(c2ncnc3[nH]cnc23)CC1)c1cccc(S(=O)(=O)N2CCC2)c1 has an inhibition of 14.3% (rep nsp14; NSP14 enzyme activity, inhibitor; 0.04883 µM).
C[C@H](CCC(=O)[O-])[C@H]1CC[C@H]2[C@@H]3CC[C@@H]4C[C@H](O)CC[C@]4(C)[C@H]3CC[C@]12C.C[N+](C)(C)CCO gave an EC50 of 31.7 ± 4.72 µg/mL (SARS-CoV-2 Delta variant; virucidal activity; A549-hACE2, B.1.617.2; 72 h post infection, virus pretreated 1 h, 37 °C).
O=C(NC1CCN(c2ncnc3[nH]cnc23)CC1)c1cccc(S(=O)(=O)N2CCCC2)c1 has an inhibition of 83.2% (rep nsp14; NSP14 enzyme activity, inhibitor; 50 µM).
Cn1cnc(Cn2c(=O)[nH]/c(=N\c3cc4cn(C)nc4cc3Cl)n(Cc3cc(F)c(F)cc3F)c2=O)n1: “thermal shift (ΔTm)” 14.2 °C (Replicase polyprotein 1a P3395H main protease; binding; SARS-CoV-2; concentration not given).
The EC50 of CC(C)[C@H](NC(=O)[C@H](CCCNC(=N)N)NC(=O)N[C@@H](Cc1ccccc1)C(=O)O)C(=O)N[C@H](C=O)CCCNC(=N)N is reported as 35400 nM (SARS-CoV-2; viral replication; Vero C1008, B.1.1.7).
With NC12CC3CC(CC(C3)C1)C2 the inhibition was 35.6 ± 1.5% (Matrix protein 2 S31N; concentration not given, pH 5.5, cell-based).
For CC(C)(C)[C@H](NC(=O)C(F)(F)F)C(=O)N1C[C@H]2[C@@H]([C@H]1C(=O)N[C@H](C#N)C[C@@H]1CCNC1=O)C2(C)C, “thermal shift (ΔTm)” read 18.6 °C (Replicase polyprotein 1a P3395H main protease; binding; SARS-CoV-2; concentration not given).
With CC(C)(C)NC(=O)N[C@H](C(=O)N1C[C@H]2[C@@H]([C@H]1C(=O)NC(CC1CCC1)C(=O)C(N)=O)C2(C)C)C(C)(C)C (some centres unmarked) the activity was 23.3% (rep papain-like protease; concentration not given, C111S mutant; baseline: positive control).
C=C(C)[C@@H]1CC[C@]2(C(=O)O)CC[C@]3(C)[C@H](CC[C@@H]4[C@@]5(C)CC[C@H](O)C(C)(C)[C@@H]5CC[C@]43C)[C@@H]12 gave an EC50 of over 20000 nM (SARS-CoV-2 Wuhan-Hu-1; Vero C1008; 24 h).
O=c1nc(NO)ccn1[C@@H]1O[C@H](CO)[C@@H](F)[C@H]1O: antiviral activity “inactive” (SARS-CoV-2; Vero, variants other than Omicron; concentration not given, highest concentration tested).
For CC(N)C12CC3CC(CC1C3)C2 (centres unmarked), the inhibition was 0% (Matrix protein 2 S31N; concentration not given, pH 5.5, cell-based).
O=c1c2ccccc2[se]n1-c1ccccc1 has an EC50 of 80 ± 10 nM (SARS-CoV-2 Wuhan-Hu-1; Vero C1008; 24 h).

Some of these lines once more (further values, each from its own experiment):
The MIC of CC[C@@H](CO)NCCN[C@@H](CC)CO is reported as 4 µg/mL (≈ 19.6 µM) (Mycobacterium tuberculosis; Alamar blue; 22/22, SIRE and linezolid resistant; 21 days, 37 °C).
O=C(NC1CCN(c2ncnc3[nH]cnc23)CC1)c1cccc(S(=O)(=O)N2CCC2)c1 has an inhibition of 14.3% (rep nsp14; NSP14 enzyme activity, inhibitor; 0.04883 µM).
C[C@H](CCC(=O)[O-])[C@H]1CC[C@H]2[C@@H]3CC[C@@H]4C[C@H](O)CC[C@]4(C)[C@H]3CC[C@]12C.C[N+](C)(C)CCO gave an EC50 of 31.7 ± 4.72 µg/mL (SARS-CoV-2 Delta variant; virucidal activity; A549-hACE2, B.1.617.2; 72 h post infection, virus pretreated 1 h, 37 °C).
O=C(NC1CCN(c2ncnc3[nH]cnc23)CC1)c1cccc(S(=O)(=O)N2CCCC2)c1 has an inhibition of 83.2% (rep nsp14; NSP14 enzyme activity, inhibitor; 50 µM).
Cn1cnc(Cn2c(=O)[nH]/c(=N\c3cc4cn(C)nc4cc3Cl)n(Cc3cc(F)c(F)cc3F)c2=O)n1: “thermal shift (ΔTm)” 14.2 °C (Replicase polyprotein 1a P3395H main protease; binding; SARS-CoV-2; concentration not given).
The EC50 of CC(C)[C@H](NC(=O)[C@H](CCCNC(=N)N)NC(=O)N[C@@H](Cc1ccccc1)C(=O)O)C(=O)N[C@H](C=O)CCCNC(=N)N is reported as 35400 nM (SARS-CoV-2; viral replication; Vero C1008, B.1.1.7).
With NC12CC3CC(CC(C3)C1)C2 the inhibition was 35.6 ± 1.5% (Matrix protein 2 S31N; concentration not given, pH 5.5, cell-based).
